Results gathered from unrelated publications.
A part holds a random share of what one study measured.

Block 1
Target: Histone acetyltransferase KAT6A, winged helix 1, GST fusion (KAT6A, Homo sapiens, UniProt Q92794, residues 1-85)
Method: protein binding microarray
Form: double-stranded DNA, one strand shown
Sample: in vitro
Tested at: not given
Notes: 8-mer, flanks averaged, mean of 2 arrays, mostly near background
Baseline: not given
Reading: higher = stronger binding
Endpoint: E-score
Target sequence (chain): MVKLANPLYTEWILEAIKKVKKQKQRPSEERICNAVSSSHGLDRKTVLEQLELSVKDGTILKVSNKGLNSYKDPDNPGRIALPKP
CCTGGTAC: -0.105
GGTCTAGA: -0.147
ATTCATTA: -0.0823
GCCCTGTA: 0.0118
CTTACTAC: -0.0429
GAACCTCA: 0.0101
GGGTGCGA: 0.18
GCTGTAAA: -0.24
ACTTCTAC: -0.27
AAGAAACA: -0.0654

Block 2
Target: RNA binding protein fox-1 homolog 2, RRM domain, GST-SBP tag (RBFOX2, Homo sapiens, UniProt O43251-10, residues 100-194)
Method: RNA Bind-n-Seq
Form: RNA
Sample: in vitro
Tested at: 365 nM
Notes: natural RNA segment, single round, ends assumed
Baseline: no-protein control
Reading: higher = stronger binding
Endpoint: RBNS enrichment (R)
All sequences stand within: GGGAGUUCUACAGUCCGACGAUC … UGGAAUUCUCGGGUGCCAA
Target sequence (chain): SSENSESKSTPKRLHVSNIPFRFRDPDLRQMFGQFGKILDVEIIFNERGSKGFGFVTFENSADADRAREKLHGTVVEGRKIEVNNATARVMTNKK
CCUCCCCCAACUAUAAAAUUAUUUUGUGGCUACUUCAUAACUGUAAUUUUGCUACUGUUAUGAAUCAUAAGAUGAAAUAUCUGGUAUGCAACCCACAGGUUGAGAACUAC: 0.479
AGGGUACCUUCAGAUGAGAUACCUGCUUGUAUUUUAAGAGAAACAAGUAGCCAAAGAAACUCUGUCACUUUGGUAACACCAGAACUUGCCACAUGUAGCUACUACAGCAA: 0.338
GUUCUGCCUCUGCCUUGAUACUGCCUCAGGAUUCCCUAUCCCAUACCCUGGGAAAUUUGAGGGACCCCAAAAACUGAGGUCUCCUGCUUUCUCCAUAAUUUGGUCUCCUC: 0.837
ACACAUUUUUAAUGUAUUAAAAUUUGGUAAUUAUGUGUACAUUAAAUUAAUAAAAGUUACUUCUAGUUAUGAUUUGUGAAUUCCCUAAGACCUUGGAUUUUUUUAAGUAA: 0.88
UCUCAGUGAACCUUCUCAGUAAAUGGUGCCUUACCGUCACUCCAGUUUCAGGAACCAGCCACAUUUCUGGUGUGUAUAUGAGAGGGUGGCUGAUAGCAACUGACUUAGAC: 0.812
AUUCCCUAGACCCAGGAUGGACCCUUCAGUUAUAGAAAUUUGUUUAUGGAACCCGGUGGCUCCCGUCAUGUUUCUCCUUACUCAUCCAAUUGGUACCCACAACUGAAGAG: 0.36
AAAUGUGAAGGGGAGAGACAGGGGCCGCCCUUGGCUCCUGUCCCUGCUGCUCCUCUAGGCCUCACUCAACAACCAAGCGCCUGGAGGACGGGACAGAUGGACAGACAGCC: 0.256
GGCUUUUCUACUCCAGGCAAACCUGCCCCAUCUUGUCGCUUUUAGGACCUCCCACAACCUGGUUCCCCACACAUCCAUAGUUCUGCCUCCCCAGCUUCUCCUCCCCAGUU: 0.808

Block 3
Target: Fragile X messenger ribonucleoprotein 1, C-terminal low-complexity region (Fmr1, Mus musculus, UniProt P35922)
Method: RNA Bind-n-Seq
Form: RNA
Sample: in vitro
Tested at: 200 nM
Notes: whole 134-nt RNA, ends assumed
With: 150 mM LiCl
Baseline: input library
Reading: higher = stronger binding
Endpoint: log2 enrichment
All molecules: 7-deaza-guanosine replaces G
GGGAGUUCUACAGUCCGACGAUCUAACUUUAGAGGAGGAUCUGAUGGAUAUGGCAGUGGACGUGGAUUUGGGGAUGGCUAUAAUGGGUAUGGUGGAGGACCUGGAGGUGGCAAUGGAAUUCUCGGGUGUCAAGG: 0.235
GGGAGUUCUACAGUCCGACGAUCUAACUUUAGAGGAGGAUCUGAUGGAUAUGGCAGUGGACGUGGAUUUGGGGAUGGCUAUAAUGGGUAUGGAGGAGGACAUGGAGGUGGCAAUGGAAUUCUCGGGUGUCAAGG: 0.682
GGGAGUUCUACAGUCCGACGAUCACCAUGCAGGUGGGCAUCUUUGGGAAGUGGGGCAAGGGGGGGAUAGGGAGGGGGGUAACACUUUAAAAACAGGUGGUCCCAGGUCGUUUCUGGAAUUCUCGGGUGUCAAGG: 1.35
GGGAGUUCUACAGUCCGACGAUCGGGGUGAGCACAGACAGGAUCGCAGGGAGAGGCCGUAUUAAUUAGCCUGGCUCCCCAGGUUCUGGAACAGCUUUUUGUCCUGUACCCAGUUGGAAUUCUCGGGUGUCAAGG: 0.958

Single results of other studies
PhoQ, residues 284 288 289 292 302 303 SLCLSL  fold induction (PhoP, residues 12 14 15 18 19 QQAYL (Escherichia coli, UniProt P23836); Sort-seq, refers to: YFP reporter; E. coli; PhoQ-PhoP variant library, with: 10 µM Mg2+; baseline: high Mg2+ state, higher = stronger signaling): 1.08

Some of these lines once more (block 1):
GGTCTAGA: -0.147
ATTCATTA: -0.0823
GCCCTGTA: 0.0118
